Published values pooled from the literature.
Numbered parts are unrelated; each lists some results of a single study.

Series 1
Target: Protein max, full length (MAX, Homo sapiens, UniProt P61244-2, residues 1-151)
Technique: protein-binding microarray
Form: double-stranded DNA, one strand shown
Matrix: in vitro
Tested at: not given
Setting: k-mer, scored over probes, only values ≥0.25
Reading: higher = stronger binding
Quantity: E-score
CTCACGAG: 0.325
CGTGTCTA: 0.366
CAACATGC: 0.355
ACATGACC: 0.328
CGCCATGC: 0.407
CATCATGC: 0.326
GGCACGCC: 0.346
CATTGCAC: 0.319
ATCACGCG: 0.454
ACTCATGC: 0.337
CCCGTGGC: 0.297
CATGCAAC: 0.393
CATGCGTA: 0.427
ATGCGGAC: 0.305
CTGCGTGC: 0.301

Series 2
Target: Histone acetyltransferase KAT6A, winged helix 2, GST fusion (KAT6A, Homo sapiens, UniProt Q92794, residues 85-181)
Technique: protein binding microarray
Form: double-stranded DNA, one strand shown
Matrix: in vitro
Tested at: not given
Setting: 8-mer, flanks averaged, mean of 2 arrays, mostly near background
Baseline: not given
Reading: higher = stronger binding
Quantity: E-score
Target sequence (chain): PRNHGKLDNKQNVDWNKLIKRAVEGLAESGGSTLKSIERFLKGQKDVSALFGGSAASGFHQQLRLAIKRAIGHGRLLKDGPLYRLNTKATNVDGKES
CCGCATAC: 0.0779
CGAAAACA: 0.0652
ACTACGGG: -0.105
AACGCAAA: 0.0528
ACAACAAC: 0.147
AATCGACG: -0.0659
AAGTGCTG: 0.0729
ACTCCTCA: -0.205
AAGGTAAG: -0.0246
ATTCAGCA: 0.111
CCCATGTA: -0.0415
CGTATACG: -0.115
CGGAGACA: 0.224
AGCTAATC: 0.167
AGTCCTAG: -0.256
AGCCGGCG: 0.239
AAAACTGG: -0.00483
TCGGTACA: -0.142
CCAAGAAA: 0.173

Series 3
Target: human cyclin A2
Read-out: peptide binding
Technique: competitive growth sequencing
Form: peptide
Organism: Saccharomyces cerevisiae
Strain: cyclin A2-Cln2 fusion strain
Tested at: concentration not given
Setting: combined libraries
Baseline: unfused Cln2 strain
Reading: direction not given
Quantity: binding score
GSPLKKLFTSTGA: 1.3
GSPLKKLFTATGL: 1.32
GSPLKALFTSTGL: -0.0163

Single results of other studies
PhoQ, residues 284 288 289 292 302 303 NLSRDF
fold induction (PhoP, residues 12 14 15 18 19 IQFRS (Escherichia coli, UniProt P23836); Sort-seq, refers to: YFP reporter; E. coli; PhoQ-PhoP variant library, with: 10 µM Mg2+; baseline: high Mg2+ state, higher = stronger signaling): 6.63

Excerpt of the above (series 2):
ACTCCTCA: -0.205
AGTCCTAG: -0.256
